Measured values collected from several papers.
Numbered parts are unrelated; each lists some results of a single study. Positions count from the first letter of the parent shown.

Study 1
Target: Interferon regulatory factor 7, full length, phosphomimetic (IRF7, Homo sapiens, UniProt Q92985, residues 1-503, S471D/S472D/S475D/S476D/S477D/S483D/S484D/S487D)
Technique: protein-binding microarray
Molecule type: double-stranded DNA, one strand shown
Matrix: in vitro
Concentration: 2200 nM top
Notes: 60-bp whole probe
Together with: salmon DNA 0.4 mg/ml
Baseline: random background probes
Direction: higher = stronger binding
Constant ends, left off below: GCCTAGCAC … GTCTTGATTCGCTTGACGCTGCTG
Target sequence (chain): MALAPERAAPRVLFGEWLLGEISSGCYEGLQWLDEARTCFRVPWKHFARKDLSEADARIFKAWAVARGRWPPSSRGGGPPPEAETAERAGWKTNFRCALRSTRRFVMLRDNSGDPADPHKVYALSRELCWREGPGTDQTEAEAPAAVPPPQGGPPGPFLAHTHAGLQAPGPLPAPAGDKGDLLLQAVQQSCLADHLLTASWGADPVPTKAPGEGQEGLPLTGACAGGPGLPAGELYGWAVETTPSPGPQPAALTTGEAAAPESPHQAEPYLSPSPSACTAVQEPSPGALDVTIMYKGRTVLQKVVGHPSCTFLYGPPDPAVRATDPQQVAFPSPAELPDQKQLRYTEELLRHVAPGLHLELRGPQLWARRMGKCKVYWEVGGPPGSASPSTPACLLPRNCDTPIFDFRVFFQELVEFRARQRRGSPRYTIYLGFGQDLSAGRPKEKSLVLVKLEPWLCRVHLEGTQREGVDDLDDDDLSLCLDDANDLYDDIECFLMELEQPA
| Oligonucleotide | fitted relative affinity |
| --- | --- |
| TCATTCTTGGGACTCACACTGTGCTAG | 1.01 z-score |
| TTAGGTATCCTTATGCTTTAGTGCTAG | 0.508 z-score |
| GACGATATCGACTATCGGGACGTGCTA | 0.13 z-score |
| TTAGGTATCGACTCTGGGTTAGTGCTA | 0.455 z-score |
| CCAGAGTCCTGTTTGATAATGTGCTAG | 1.15 z-score |
| GACGGTATCGACACTAGGGACGTGCTA | -0.169 z-score |
| TCACCTCTCTTTCCAACACTGTGCTAG | 2.49 z-score |
| CTTGTTTTACAATTTGCTTTGTGCTAG | 1.91 z-score |

Study 2
Target: CCNA1, cyclin fold, Cln2 fusion (human)
Technique: yeast growth competition, sequencing
Matrix: yeast
Notes: weak parent motif
Baseline: not given
Direction: higher = stronger binding
Starting sequence: PKN2 docking peptide (human); VSAVQKLDFSDTM; partner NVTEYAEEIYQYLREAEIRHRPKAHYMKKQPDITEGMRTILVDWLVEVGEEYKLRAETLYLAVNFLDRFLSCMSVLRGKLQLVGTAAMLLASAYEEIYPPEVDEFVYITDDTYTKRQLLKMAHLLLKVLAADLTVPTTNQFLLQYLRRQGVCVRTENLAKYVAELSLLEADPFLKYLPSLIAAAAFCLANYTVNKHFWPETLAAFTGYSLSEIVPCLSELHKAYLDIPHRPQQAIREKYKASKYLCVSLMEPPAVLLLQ
| Change | normalised enrichment score |
| --- | --- |
| VSAVQKLDFSDYM [T12Y] | 0.152 |
| VSAVQKLDFSDKM [T12K] | 0.0974 |
| VSAVQKLIFSDTM [D8I] | 0.387 |
| VSAVQKLDFSYTM [D11Y] | -0.0149 |
| VSAVQKLDFSDTD [M13D] | -0.00306 |

Study 3
Target: RNA binding protein fox-1 homolog 2, RRM domain, GST-SBP tag (RBFOX2, Homo sapiens, UniProt O43251-10, residues 100-194)
Technique: RNA Bind-n-Seq
Molecule type: RNA
Matrix: in vitro
Concentration: 365 nM
Notes: natural RNA segment, single round, ends assumed
Baseline: no-protein control
Direction: higher = stronger binding
Constant ends, left off below: GGGAGUUCUACAGUCCGACGAUC … UGGAAUUCUCGGGUGCCAA
Target sequence (chain): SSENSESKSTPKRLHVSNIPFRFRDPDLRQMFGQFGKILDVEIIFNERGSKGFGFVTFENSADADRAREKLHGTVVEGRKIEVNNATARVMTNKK
| Oligonucleotide | RBNS enrichment (R) |
| --- | --- |
| CCAAGGGCGUUCACUGCGACCUGGGAGUAAACAGGGUGUCGCUGCCCUGUGAGAGGAAGAUGGGGCCACCCCAGGGCUCCCAAUGCACUCGGAAGUCAGCAGUACCAGGA | 0.219 |
| GCAGGGAGAAUACUUCCAACAGUUGAGGUGUUACCAAACCACUUGAGAAUUCAUGAGCACUUUAACUCUAAACUCUGAAUUUCAAAGCUUGAUGUGAAGUCCUCUAGAAU | 0.603 |
| AAAGUAAUAUGUGCCAAUGCUAUUUGUGAAAUGUUUGGUCUUUCUAAACGACUAAAGGAUUUGUUGGGUUUUUGCUUAAGUUUUGAACCAAAUCCUAGAGCCAGCUGAUA | 1.11 |
| GGUUGCUAGCCUUAACUUCAGCUGGUGCAAAACAUCUGACUGUAGCCGAACUUCAGCCAUCAGAUCCUUCAAAGUGGAACUUUGGAUUGUUUUUACAGACAACAUCGAGU | 0.464 |
| UGCCACAGAACAAACACUACUCUAGCAGAGCCUUUCUUGCACUUUAAAGUGAGAUUAAUUUAGCUGUAAUUUGGUUAAAAACUUCCUAAGAGAGAAAAUUAAGUCUACUG | 0.402 |
| UUUGUUUGGGGUUUUUUUGUUGUUGUUGGUUUUUGUUUUUGUUUUCGUUUUUGCAUGAAUCGCGAUAUUUUGUACUUUUAAAAACUCCAACUUCCACAAAACAACUCAAG | 50.1 |
| CCACAGUUUCUUGACUGGAGGCCAUCAACCCUCUUGGUUGAGGCCUUGUUCUGAGCCCUGACAUGUGCUUGGGCACUGGUGGGCCUGGGCUUCUGAGGUGGCCUCCUGCC | 0.349 |

Other studies, line by line
| Substance | target | assay | system | setting | scale | endpoint | value |
| --- | --- | --- | --- | --- | --- | --- | --- |
| PhoQ, residues 284 288 289 292 302 303 TLASMF | PhoP, residues 12 14 15 18 19 IFFTR (Escherichia coli, UniProt P23836) | Sort-seq, item: YFP reporter | E. coli | PhoQ-PhoP variant library, together with: 10 µM Mg2+ | baseline: high Mg2+ state, higher = stronger signaling | fold induction | 2.68 |

Excerpt of the above (study 2):
| Change | normalised enrichment score |
| --- | --- |
| VSAVQKLDFSYTM [D11Y] | -0.0149 |
